{"data": "Measurements pooled from the literature", "TDP1": "Tyrosyl-DNA phosphodiesterase 1 (TDP1, Homo sapiens, UniProt Q9NUW8)", "note": "Lines come from different studies, so protocols differ. Several values in a cell are separate wells, animals, samples, runs or records. Numbers after ± are the reported error.", "sequence of UniProt Q9NUW8 (whole entry, looked up)": "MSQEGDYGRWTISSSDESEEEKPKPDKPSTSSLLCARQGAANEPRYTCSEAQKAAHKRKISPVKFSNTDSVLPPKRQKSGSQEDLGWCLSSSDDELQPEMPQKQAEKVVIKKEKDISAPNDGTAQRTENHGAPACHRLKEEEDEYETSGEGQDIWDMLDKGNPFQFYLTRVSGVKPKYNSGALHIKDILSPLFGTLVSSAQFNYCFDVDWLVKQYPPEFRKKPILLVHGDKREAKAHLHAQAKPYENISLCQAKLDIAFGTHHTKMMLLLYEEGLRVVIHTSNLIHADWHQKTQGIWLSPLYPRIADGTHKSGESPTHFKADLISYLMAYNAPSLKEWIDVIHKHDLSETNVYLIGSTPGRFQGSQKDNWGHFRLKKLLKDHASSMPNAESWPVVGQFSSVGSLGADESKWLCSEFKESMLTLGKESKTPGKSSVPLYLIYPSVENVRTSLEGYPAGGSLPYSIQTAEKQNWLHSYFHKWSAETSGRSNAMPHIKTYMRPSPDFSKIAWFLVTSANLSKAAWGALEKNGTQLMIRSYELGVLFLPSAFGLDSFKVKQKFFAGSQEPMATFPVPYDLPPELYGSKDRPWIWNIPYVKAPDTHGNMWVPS"}
{"SMILES": "CCN(CC)CC(=O)Nc1cccc(-n2cc(-c3ccc4ccc(-c5cn(-c6cccc(NC(=O)CN(CC)CC)c6)nn5)cc4c3)nn2)c1", "target or system": "RCC4", "test": "PCR angiogenesis array, refers to: AKT1", "conditions": "5 x IC50, 2 h, normoxia", "how to read": "reference: untreated", "measurement": "fold regulation", "value": 1.01}
{"SMILES": "O=C(C[Se]C(=O)C12CC3CC(CC(C3)C1)C2)Nc1cccc(C(F)(F)F)c1", "target or system": "NCI60 leukaemia subpanel", "test": "NCI60 five-dose screen", "measurement": "GI50", "value": "8.39 µM"}
{"SMILES": "CN1CCCNC(=O)c2cccc(c2)C(=O)NCCCN(C)CCCNc2cccc3c2C(=O)c2cccc(c2C3=O)NCCC1", "target or system": "SAS", "test": "RNA-Seq, refers to: CTSO mRNA", "conditions": "1 µM, 6 h", "how to read": "reference: untreated cells", "measurement": "log2 fold change", "value": 2.59}
{"SMILES": "CCNc1cc2c(cc1C)C1(c3cc(C)c(NCC)cc3O2)c2ccccc2C(=O)N1N=Cc1c[c-]c(-c2ccccn2)cc1.Cc1c(C)c(-c2ccc(-c3ccccc3)cc2)[c-](C)c1C.[Cl-].[Ir+3]", "target or system": "A549", "test": "annexin V/PI flow cytometry", "conditions": "3.0×IC50, 24 h", "measurement": "late apoptotic cells", "value": "85.72 ± 0.54%"}
{"SMILES": "C=CC(=O)Nc1cc(Nc2nccc(-c3c(-c4ccc(OC)cc4)n(C)c4ccccc34)n2)c(OC)cc1N(C)CCN(C)C", "target or system": "NCI-H1975", "test": "cell growth or viability, MTT", "conditions": "0.5 µM, 72 h", "measurement": "inhibition", "value": "59.9%"}
{"SMILES": "COc1ccc2c(c1)c(CC(=O)[Se]CC(=O)Nc1cccc(C(F)(F)F)c1)c(C)n2C(=O)c1ccc(Cl)cc1", "target or system": "NCI60 leukaemia subpanel", "test": "NCI60 five-dose screen", "measurement": "mean TGI", "value": "4.63 µM"}
{"SMILES": "Cc1ncsc1-c1ccc([C@H](C)NC(=O)[C@@H]2C[C@@H](O)CN2C(=O)[C@@H](NC(=O)[C@H]2C[C@H](C(=O)N3CCC(c4cc(Nc5cc(C#N)ccn5)nc(N5CCC(F)(F)C5)c4)CC3)C2)C(C)(C)C)cc1", "target or system": "CAL-33 with inducible wild-type LZK", "test": "MS proteomics, refers to: SMG6", "conditions": "500 nM, 24 h, together with: doxycycline", "how to read": "reference: DMSO", "measurement": "protein level log2 fold change", "value": 0.284}
{"SMILES": "COc1cc(N(C)CCN(C)C)c(NC(=O)/C=C/c2ccc3c(c2)OCCO3)cc1Nc1nccc(-c2cn(C)c3ccccc23)n1", "target or system": "NCI-H1975", "test": "cell growth or viability, MTT", "conditions": "0.5 µM, 72 h", "measurement": "inhibition", "value": "73.8%"}
{"SMILES": "Cn1ncc2cc(-c3cncc(Cl)c3N3CCC4(CCNC4=O)CC3)ccc21", "target or system": "LS174T", "test": "gene expression, microarray, refers to: EMP1 mRNA", "conditions": "concentration not given, 24 h", "how to read": "reference: untreated cells", "measurement": "log2 fold change", "value": 1.34}
{"SMILES": "N#Cc1cccc(/C=C/C(=O)c2ccc(O)cc2)c1", "target or system": "U-87 MG", "test": "refers to: ARAP2", "conditions": "concentration not given", "how to read": "reference: untreated", "measurement": "fold change", "value": 53.2}
{"SMILES": "COc1cc(N(C)CCN(C)C)c(NC(=O)/C=C/c2ccc(Cl)cc2)cc1Nc1nccc(-c2cn(C)c3ccccc23)n1", "target or system": "NCI-H1975", "test": "cell growth or viability, MTT", "conditions": "0.5 µM, 72 h", "measurement": "inhibition", "value": "70.2%"}
{"SMILES": "CNS(=O)(=O)Nc1nccc(Cc2c(C)c3ccc(Oc4ncccc4F)cc3oc2=O)c1F", "target or system": "NCI-H1048", "test": "cell viability", "conditions": "7 days", "measurement": "IC50", "value": "0.665 µM"}
{"SMILES": "COc1ccc(NC(=O)c2ccc3[nH]c(-c4ccc(N(C)C)cc4)nc3c2)cn1", "target or system": "HCEC-hTERT", "test": "IncuCyte", "conditions": "concentration not given, 16 h", "measurement": "dead cell to confluence ratio", "value": "8.16 and 3.18 and 87.9"}
{"SMILES": "CCCCCCCCCCCCCCCCCCOc1ccccc1CCOP(=O)([O-])OCC[N+](C)(C)C", "target or system": "HOP-92", "test": "cell growth or viability, SRB", "conditions": "10 µM", "measurement": "inhibition", "value": "43%"}
{"SMILES": "C=CC(=O)N1CCCC(n2c(=O)c3ncccc3n(Cc3ccc(Oc4ccccc4)cc3)c2=O)C1 (centres unmarked)", "target or system": "Rec1", "test": "refers to: TMPO-AS1", "conditions": "concentration not given", "how to read": "reference: untreated", "measurement": "log2 fold change", "value": -0.353}
{"SMILES": "Cc1cc(/N=N/c2ccc(/N=N/c3ccc(O)c(C(=O)O)c3)cc2)c(N)cc1N", "target or system": "primary mouse articular chondrocytes", "test": "Western blot, refers to: Phlpp1", "conditions": "25 µM, days 0-6 and 0-9", "how to read": "reference: vehicle", "measurement": "protein level", "value": "50 to 70%"}
{"SMILES": "CN(C)C(=O)c1ccnc(N2Cc3cn(Cc4ccc(Cl)cc4)nc3C2)n1", "target or system": "HEK293 expressing GluA1 and GluA2", "test": "glutamate excitotoxic cell death, CellTox Green", "conditions": "together with: glutamate", "measurement": "IC50", "value": "0.025 µM"}
{"SMILES": "Cc1c(Cl)cccc1Nc1ccccc1C(=O)[Se]CC(=O)Nc1cccc(C(F)(F)F)c1", "target or system": "NCI60 CNS subpanel", "test": "NCI60 five-dose screen", "measurement": "mean TGI", "value": "3.47 µM"}
{"SMILES": "COC(=O)C1=C(C)Oc2cc(OC)ccc2C1C(C(C)=O)C(=O)OC (centres unmarked)", "target or system": "3T3-L1 preadipocytes", "test": "adipogenesis, Oil Red O staining", "conditions": "IC20, 14 days, single replicate", "measurement": "lipid content", "value": "0.716 OD492"}
{"SMILES": "CC(=O)Nc1sc2c(c1SC#N)CCCC2", "target or system": "Uncharacterized protein (Trypanosoma brucei brucei, UniProt Q386Q8)", "test": "enzyme activity, inhibitor, coupled colorimetric", "conditions": "together with: E. coli pyrophosphatase coupling", "measurement": "IC50", "value": "39.3 µM"}
{"SMILES": "COc1ccc(OC)c(C=NOCc2ccc3nc(-c4ccccc4)c(Nc4ccc(C(=O)O)cc4)n3c2)c1N (mixture of isomers)", "target or system": "TDP1", "test": "enzyme activity, inhibitor", "conditions": "100 µM, unpurified compound", "measurement": "inhibition", "value": "19.4%"}
{"SMILES": "O=C(CCCCCOc1ccc2ccccc2c1)N[C@@H](CO)C[C@@H](O)c1ccc(-c2ccccc2)cc1", "target or system": "HeLa", "test": "CERT activity, HPLC-MS/MS lipidomics, refers to: ceramide 16", "conditions": "1 µM, 24 h, not cell-number normalised", "measurement": "ceramide level", "value": "25500 pmol/sample and 26100 pmol/sample and 28300 pmol/sample"}
{"SMILES": "COc1ccccc1-c1ccncc1C(=O)Nc1nnc(OCc2ccc(Cl)cc2)s1", "target or system": "MDA-MB-231", "conditions": "0.75 µM", "measurement": "colony count", "value": "34 and 35 and 25 and 22"}
{"SMILES": "O=C(C[Se]C(=O)c1ccc2ccccc2c1)Nc1cccc(C(F)(F)F)c1", "target or system": "NCI60 leukaemia subpanel", "test": "NCI60 five-dose screen", "measurement": "mean TGI", "value": "4.16 µM"}
{"SMILES": "COC(=O)c1cccc(C=NOCc2ccc(-c3nc4cc(-c5ccccc5)ccn4c3Nc3ccc(C(=O)O)cc3)cc2)c1O", "target or system": "TDP1", "test": "enzyme activity, inhibitor", "conditions": "100 µM, unpurified compound", "measurement": "inhibition", "value": "28.9%"}
{"SMILES": "NC(=O)c1ccc(-c2ccccc2Cl)c2c3c([nH]c12)CC[C@@H](N)C3", "target or system": "DOHH-2", "test": "cell growth or viability", "measurement": "IC50", "value": "0.00322 µM"}
{"SMILES": "C=CC(=O)N1[C@@H](c2ccc3c(c2)OCO3)c2[nH]c3ccccc3c2C[C@H]1C(=O)NC1CC1", "target or system": "rat DRG neurons", "conditions": "1.111 µM, 48 h, together with: vincristine 40 nM", "measurement": "neuron degeneration", "value": "74.7% and 79.1%"}
{"SMILES": "CC(C)Cc1ccc(C(C)C(=O)[Se]CC(=O)Nc2cccc(C(F)(F)F)c2)cc1 (centres unmarked)", "target or system": "NCI60 CNS subpanel", "test": "cell growth", "conditions": "10 µM, 48 h, one-dose", "measurement": "mean growth percent", "value": "-84.8%"}
{"SMILES": "C=CC(=O)Nc1cc(Nc2nccc(-c3c(-c4ccc(F)cc4)n(C)c4ccccc34)n2)c(OC)cc1N(C)CCN(C)C", "target or system": "NCI-H1975", "test": "cell growth or viability, MTT", "conditions": "0.5 µM, 72 h", "measurement": "inhibition", "value": "64.4%"}
{"SMILES": "CCCC[N+]1=c2cc3c4cc2[O][Mn-2]1(=[C]=O)(=[C]=O)(=[C]=O)[n+]1ccc(cc1)C(=O)NCCNC(=O)c1cc[n+](cc1)[Mn-2](=[C]=O)(=[C]=O)(=[C]=O)([O]3)[N+]=4CCCC", "target or system": "HCT-15", "test": "MTT", "conditions": "50 µM, 48 h, photolysed compound", "measurement": "viability reduction", "value": "95%"}
{"SMILES": "Cc1ncsc1-c1ccc(C(C)NC(=O)C2CC(O)CN2C(=O)C(NC(=O)CCCCCCCCCCN2CCCC(Nc3ncc(Cl)c(Nc4ccccc4S(=O)(=O)C(C)C)n3)C2)C(C)(C)C)cc1 (centres unmarked)", "target or system": "22Rv1", "test": "RNA-seq, refers to: PAPOLG mRNA", "conditions": "concentration not given", "how to read": "reference: DMSO", "measurement": "log2 fold change", "value": -1.77}
{"SMILES": "CC(C)c1ccc(N(C)c2ccc3c(c2)OCC[C@H]3CNc2cnccc2C(=O)O)cc1", "target or system": "KALS-1", "test": "cell growth or viability, ATP luminescence", "conditions": "7 days", "measurement": "IC50", "value": "≥ 10 µM"}
{"SMILES": "O=C(C[Se]C(=O)c1cccnc1Nc1cccc(C(F)(F)F)c1)Nc1cccc(C(F)(F)F)c1", "target or system": "NCI60 leukaemia subpanel", "test": "NCI60 five-dose screen", "measurement": "GI50", "value": "1.78 µM"}
{"SMILES": "O=C(NCC(F)(F)F)c1cccc(N2Cc3cn(Cc4ccc(F)cc4)nc3C2)c1", "target or system": "HEK293 expressing GluA1 and GluA2", "test": "glutamate excitotoxic cell death, CellTox Green", "conditions": "together with: glutamate", "measurement": "IC50", "value": "0.028 µM"}
{"SMILES": "COc1cc(N2CCN(C(=O)C3CCCN3)CC2)ccc1Nc1ncc(Cl)c(Nc2ccccc2P(C)(C)=O)n1 (centres unmarked)", "target or system": "Ba/F3 EML4-ALK", "test": "annexin V flow cytometry", "conditions": "concentration not given, 3 h", "measurement": "late apoptotic cells", "value": "7.6%"}
{"note": "Repeated from above:"}
{"SMILES": "Cc1c(Cl)cccc1Nc1ccccc1C(=O)[Se]CC(=O)Nc1cccc(C(F)(F)F)c1", "target or system": "NCI60 CNS subpanel", "test": "NCI60 five-dose screen", "measurement": "mean TGI", "value": "3.47 µM"}
{"SMILES": "COC(=O)C1=C(C)Oc2cc(OC)ccc2C1C(C(C)=O)C(=O)OC (centres unmarked)", "target or system": "3T3-L1 preadipocytes", "test": "adipogenesis, Oil Red O staining", "conditions": "IC20, 14 days, single replicate", "measurement": "lipid content", "value": "0.716 OD492"}
{"SMILES": "CC(=O)Nc1sc2c(c1SC#N)CCCC2", "target or system": "Uncharacterized protein (Trypanosoma brucei brucei, UniProt Q386Q8)", "test": "enzyme activity, inhibitor, coupled colorimetric", "conditions": "together with: E. coli pyrophosphatase coupling", "measurement": "IC50", "value": "39.3 µM"}
{"SMILES": "COc1ccc(OC)c(C=NOCc2ccc3nc(-c4ccccc4)c(Nc4ccc(C(=O)O)cc4)n3c2)c1N (mixture of isomers)", "target or system": "TDP1", "test": "enzyme activity, inhibitor", "conditions": "100 µM, unpurified compound", "measurement": "inhibition", "value": "19.4%"}
